Experimental data pooled from the literature.
Each line is one published result; not all experiments were run side by side.

Compound	tested on	test	test system	setting	how to read	endpoint	value
Cc1cccc(Cn2nc(C3CC3)c3c(NC(=O)c4cnc5cc(OCCN6CCN(C)CC6)ccn45)cccc32)n1	–	measured: Fatigue	human advanced solid tumours	oral, 400 mg, all-causality	–	adverse events incidence	42.9%
COc1ccc(C[C@@H]2NC(=O)[C@H]([C@@H](C)O)NC(=O)[C@@H]3[C@@H]4CCN3C(=O)[C@@H]3Cc5cn(c6ccc(F)cc56)CCCCCCN(Cc5ccc(cc5)CCNC(=O)[C@]5(C)CCCN5C2=O)C(=O)CCC(=O)N[C@@H](C)C(=O)N[C@H](CNC(=O)CCCCC[N+](C)(C)C)C(=O)N[C@@H](Cc2cccc(c2)CNC(=O)CO4)C(=O)N3)cc1	–	measured: breast fibroma	human	Study-003 safety	–	adverse events	0%
C[C@@H](c1nc(-c2ccc(C#N)cc2)cs1)[C@](O)(Cn1cncn1)c1cc(F)ccc1F	–	–	healthy humans	oral, dose not given, with: midazolam	–	adverse event Constipation	8.7%
CC(C)(C)N1CCC(c2ccccc2)(c2ccccc2)CC1	Vero-E6	CellTiter-Glo ATP	–	concentration not given, 72 h, first round 5-point	reference: DMSO 0%, hyamine -100%, more negative, more toxic	cytotoxicity efficacy	0%
O=C(Nc1ccccc1)C1CCN(C(=O)Oc2cccnc2)CC1	–	measured: Overall	healthy female human	concentration not given, all doses pooled	–	adverse event incidence	83%
O=c1ccc2ncc(=O)n3c2n1C[C@H]3CN1CCC(NCc2cc3c(cn2)OCCC3)CC1	–	measured: general administration site conditions	healthy human participants	oral, 1500 mg, with: rifampicin 600 mg	–	adverse event incidence	0%
[O-][S+]1CCc2nc(N3CCC(c4ncc(Cl)cn4)CC3)nc(NC3(CO)CCC3)c21 (centres unmarked)	–	measured: gastrointestinal disorders	healthy male humans	6 mg twice daily	–	adverse event incidence	25%
O=C(c1ccc(F)c(F)c1Nc1ccc(I)cc1F)N1CC(O)([C@@H]2CCCCN2)C1	–	–	human patients	oral, 1 mg/kg, dose expansion	–	adverse events of special interest	50%
CC(=O)N(C)[C@H]1CCN(C(=O)c2cnc3c(c2)C[C@](C)(c2ccc(F)cc2)N3)C1	–	measured: muscle ache	human	oral, 30 mg once daily	–	adverse event duration	12 days
Cc1ncc2n1-c1ccc(Cl)cc1C(c1ccccc1F)=NC2	–	–	healthy humans	oral, dose not given	–	adverse event Constipation	0%
CCN(CC)CCNC(=O)c1cc(-c2ccc(Br)s2)nc2ccccc12	Vero-E6	CellTiter-Glo ATP	–	72 h, retest 8-point duplicates	reference: DMSO 0%, hyamine -100%, more negative, more toxic	maximum response	-73.1%

For quick reference, copied from above:
Compound	tested on	test	test system	setting	how to read	endpoint	value
CC(C)(C)N1CCC(c2ccccc2)(c2ccccc2)CC1	Vero-E6	CellTiter-Glo ATP	–	concentration not given, 72 h, first round 5-point	reference: DMSO 0%, hyamine -100%, more negative, more toxic	cytotoxicity efficacy	0%
